# Measured values from different studies.
# Parts stem from different laboratories: compare values within a part only. Positions count from the first letter of the parent shown.

# Series 1 — target: CCNE1, cyclin fold, Cln2 fusion (human); technique: yeast growth competition, sequencing; matrix: yeast; setting: strong parent motif; reference: not given; reading: higher = stronger binding
# Starting sequence: E2F1 docking peptide (human); PPVKRRLDFETDH; partner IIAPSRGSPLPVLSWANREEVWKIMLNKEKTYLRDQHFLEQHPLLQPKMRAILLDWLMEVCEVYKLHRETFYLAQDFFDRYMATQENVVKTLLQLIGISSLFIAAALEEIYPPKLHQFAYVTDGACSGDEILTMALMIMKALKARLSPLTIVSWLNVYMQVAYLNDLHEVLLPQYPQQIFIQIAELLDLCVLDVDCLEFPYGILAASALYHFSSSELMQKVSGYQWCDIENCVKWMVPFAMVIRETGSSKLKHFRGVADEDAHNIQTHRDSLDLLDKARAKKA
Substitution,normalised enrichment score
P2Q,6.19
E10F,6.14
R6H,3.07
R6G,0.808
D12A,6.76
L7T,-0.101
R6F,3.3
E10Y,5.69
R6Y,2.76
R5S,-0.281
R5E,-0.046
K4E,1.91
V3N,0.102
K4D,0.788
T11Q,6.06
L7G,-0.121
R6K,5.96

# Series 2 — technique: DHFR PCA, deep sequencing; matrix: yeast; with: (+)-ABA 1.4 µM; reference: wild-type fitted maximum; reading: higher = stronger binding
# Target: ABI1, truncated, D143A, DHFR fusion (Arabidopsis thaliana)
# Setting: methotrexate growth selection, single substitutions
# Starting sequence: PYL1, truncated, DHFR fusion (Arabidopsis thaliana); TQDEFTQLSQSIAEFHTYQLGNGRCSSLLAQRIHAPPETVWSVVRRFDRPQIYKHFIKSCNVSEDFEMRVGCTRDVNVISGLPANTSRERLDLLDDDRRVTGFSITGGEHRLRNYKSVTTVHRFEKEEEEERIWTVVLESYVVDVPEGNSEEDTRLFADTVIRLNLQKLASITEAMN
Substitution,relative binding score
E125A,66%
S59A,34.3%
E67D,52.3%
C72T,30.5%
T160Q,-0.00547%
I52N,20.8%
G81D,-9.92%
R49M,48.6%
V43H,-7.47%
L28D,7.54%
R24G,-0.0884%
N149C,31.7%
S42G,43.9%
C60Q,-5.46%
T173P,-21.7%
S117Q,10.8%
V78C,38.3%
H110W,69.3%
T119G,-3.15%
A158M,11.5%
W41V,1.55%
E14Y,-7.22%
E139A,17.3%
E131N,73.8%
R46S,14.3%

# Series 3 — technique: RNA Bind-n-Seq; form: RNA; matrix: in vitro; concentration: 200 nM; setting: whole 134-nt RNA, ends assumed; with: 150 mM LiCl; reference: input library; reading: higher = stronger binding; library: 7-deaza-guanosine replaces G
# Target: Ras GTPase-activating protein-binding protein 1, full length (G3BP1, Homo sapiens, UniProt Q13283)
# Sequence of UniProt Q13283 (whole entry, looked up): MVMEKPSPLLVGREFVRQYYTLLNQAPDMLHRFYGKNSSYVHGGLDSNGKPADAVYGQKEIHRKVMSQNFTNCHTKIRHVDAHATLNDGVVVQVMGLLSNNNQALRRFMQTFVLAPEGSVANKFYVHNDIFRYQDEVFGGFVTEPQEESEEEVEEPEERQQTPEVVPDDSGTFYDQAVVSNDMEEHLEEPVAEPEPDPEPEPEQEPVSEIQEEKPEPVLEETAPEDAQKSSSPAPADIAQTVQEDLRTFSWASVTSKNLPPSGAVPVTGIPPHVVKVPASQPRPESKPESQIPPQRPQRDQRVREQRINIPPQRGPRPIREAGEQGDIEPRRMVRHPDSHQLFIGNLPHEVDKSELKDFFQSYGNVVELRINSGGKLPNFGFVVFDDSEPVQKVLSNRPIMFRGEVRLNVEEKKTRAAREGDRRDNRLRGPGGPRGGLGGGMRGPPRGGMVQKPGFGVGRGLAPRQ
Strand,log2 enrichment
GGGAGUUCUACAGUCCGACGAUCCCUCAAGUCCUGUGCUACACAUCGUAUGUACCGAAUCGGUUUGGAAAGGUGGAAAGUAUUAUGUUACGCCGUUCGGAUCUGCACUUCCAGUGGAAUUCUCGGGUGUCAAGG,0.212
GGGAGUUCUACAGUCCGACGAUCCCUGUGCUACACAUCGUAUGUACCGAAUCGGGCCCCCCCGGCCCCCCCGGCCCCCCCGGGGAAAGUAUUAUGUUACGCCGUUCGGAUCUGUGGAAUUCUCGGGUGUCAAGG,-0.0195
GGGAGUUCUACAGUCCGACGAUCCCUGUGCUACACAUCGUAUGUACCGAAUCGGGGAAAAAAAGGGGAGGGGAAAAAAAGGGGAAAGUAUUAUGUUACGCCGUUCGGAUCUGCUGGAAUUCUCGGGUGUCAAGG,0.989
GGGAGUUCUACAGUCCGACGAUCCACAGACAACACGCACCCACACAGACACAGAGGGGAGGGGUUGGGAUGGGGACAGGGUGCACAGCAGGGCGGGGUAGGACCCCAGCCCCUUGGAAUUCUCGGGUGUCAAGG,-0.237
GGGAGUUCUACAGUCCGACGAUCUUUAGCCUGUGGAAUGAUAGCAGUAGGGUCCUGCAAUGGAGAUGUAACUUCCACUAUCCUUCAGACCAUCAUGGAGAAGUCAGAGACUGAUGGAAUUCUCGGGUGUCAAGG,-0.849
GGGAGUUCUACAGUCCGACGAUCUCAAGUCCUGUGCUACACAUCGUAUGUACCGAAUCGGUUUGGGUUUGGGUUUGGAAAGUAUUAUGUUACGCCGUUCGGAUCUGCACUUCCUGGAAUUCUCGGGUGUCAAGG,-0.334
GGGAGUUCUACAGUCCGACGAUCCCUGUGCUACACAUCGUAUGUACCGAAUCGGCCCCCCCGGGCCCCCCCGGCCCCCCCGGGAAAGUAUUAUGUUACGCCGUUCGGAUCUGCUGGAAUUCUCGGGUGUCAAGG,0.0469
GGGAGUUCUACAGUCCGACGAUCCUCAAGUCCUGUGCUACACAUCGUAUGUACCGAAUCGGAGGAAAGGAAAAAGGAAAGUAUUAUGUUACGCCGUUCGGAUCUGCACUUCCAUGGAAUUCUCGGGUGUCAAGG,-0.959

# Series 4 — technique: protein binding microarray; form: double-stranded DNA, one strand shown; matrix: in vitro; concentration: not given; reference: not given; reading: higher = stronger binding
# Target: Histone acetyltransferase KAT6A, winged helix 2, GST fusion (KAT6A, Homo sapiens, UniProt Q92794, residues 85-181)
# Setting: 8-mer, flanks averaged, mean of 2 arrays, mostly near background
# Residues (chain): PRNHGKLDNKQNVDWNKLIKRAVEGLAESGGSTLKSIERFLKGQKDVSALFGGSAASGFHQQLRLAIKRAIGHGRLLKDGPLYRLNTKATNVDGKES
Strand,E-score
CGATGTGA,-0.192
CAAACCCC,-0.0557
AGCCGGGG,0.219
GAAGCAAA,0.0562
CAGACCAA,0.101
GACAACTA,-0.0784
CGACGTCC,0.0962
GATAGAAA,-0.0406
ACTGGCAG,0.0108
AAACCGAC,0.121
ATTGAAAC,-0.0988
AGGGGTAA,-0.194
CCTTGATA,0.0371
GCCCTTCC,0.0839
GGCTAGAC,-0.12
AATTTGCC,0.0218
ACCTACGG,-0.109
CTACGTAA,-0.113
GTCAGGGA,-0.106
AAATATTA,0.0123
ATCGATAA,-0.23
CATCGGAA,-0.114
ACCAAACA,0.0462
CAGCGTGG,0.148
ACGAGTTG,-0.0386
